Results pooled from the literature.
Parts stem from different laboratories: compare values within a part only.

Series 1
Target: Interferon regulatory factor 7, full length, phosphomimetic (IRF7, Homo sapiens, UniProt Q92985, residues 1-503, S101K/S471D/S472D/S475D/S476D/S477D/S483D/S484D/S487D)
Technique: protein-binding microarray
Molecule type: double-stranded DNA, one strand shown
Matrix: in vitro
Tested at: 250 nM
Notes: 60-bp whole probe
Added: salmon DNA 0.4 mg/ml
Baseline: random background probes
Direction: higher = stronger binding
Constant ends, left off below: GCCTAGCAC … GTCTTGATTCGCTTGACGCTGCTG
Target sequence (chain): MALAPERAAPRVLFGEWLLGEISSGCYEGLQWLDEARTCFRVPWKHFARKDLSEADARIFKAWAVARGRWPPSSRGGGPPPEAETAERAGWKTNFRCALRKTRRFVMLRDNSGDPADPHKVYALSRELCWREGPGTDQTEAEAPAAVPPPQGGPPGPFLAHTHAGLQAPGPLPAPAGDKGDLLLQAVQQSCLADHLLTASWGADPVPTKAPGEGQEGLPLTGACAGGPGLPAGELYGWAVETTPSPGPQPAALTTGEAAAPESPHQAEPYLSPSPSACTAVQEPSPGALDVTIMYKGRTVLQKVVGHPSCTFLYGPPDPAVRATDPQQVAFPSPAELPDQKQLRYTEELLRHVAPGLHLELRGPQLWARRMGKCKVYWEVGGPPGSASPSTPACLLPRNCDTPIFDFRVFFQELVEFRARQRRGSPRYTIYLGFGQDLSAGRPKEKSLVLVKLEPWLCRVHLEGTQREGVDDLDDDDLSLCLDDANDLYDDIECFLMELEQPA
Strand | log fluorescence
TTAGAACTGAGACTGGGTTAGTGCTAG | -0.112 z-score
GACGCACTGGGGTTTCGAGACGTGCTA | 2.06 z-score
TCATAACTCATTTTCGTACTGTGCTAG | 1.26 z-score
GACGGTTACCTTCTCCTGACGTGCTAG | 0.174 z-score
CACGGTTCCGGTTTCGGGACGTGCTAG | 7.4 z-score
TAAGGTTTCGGGTATCGGTTAGTGCTA | 8.18 z-score
TTAGGTATCCTTCACCTTTAGTGCTAG | 0.0424 z-score
TTAGAACTGGGGTTTCGATTAGTGCTA | 5.74 z-score

Series 2
Target: TAR DNA-binding protein 43, full length, His tag (TARDBP, Homo sapiens, UniProt Q13148, residues 1-414)
Technique: RNA Bind-n-Seq
Molecule type: RNA
Matrix: in vitro
Tested at: 20 nM
Notes: 6-mer, flanks averaged, single round
Added: 150 mM KCl
Baseline: input library
Direction: higher = stronger binding
Strand | 6-mer enrichment (R)
UCAAGC | 0.638
GCACCC | 0.789
AGGGAC | 2.17
CUUGAU | 0.633
GCGCGU | 1.45
UAAUGA | 0.686
GUGCAA | 0.938
AGGGCU | 1.93
GAGGUA | 1.49

Series 3
Target: Ras GTPase-activating protein-binding protein 1, full length (G3BP1, Homo sapiens, UniProt Q13283)
Chain of UniProt Q13283 (whole entry, looked up): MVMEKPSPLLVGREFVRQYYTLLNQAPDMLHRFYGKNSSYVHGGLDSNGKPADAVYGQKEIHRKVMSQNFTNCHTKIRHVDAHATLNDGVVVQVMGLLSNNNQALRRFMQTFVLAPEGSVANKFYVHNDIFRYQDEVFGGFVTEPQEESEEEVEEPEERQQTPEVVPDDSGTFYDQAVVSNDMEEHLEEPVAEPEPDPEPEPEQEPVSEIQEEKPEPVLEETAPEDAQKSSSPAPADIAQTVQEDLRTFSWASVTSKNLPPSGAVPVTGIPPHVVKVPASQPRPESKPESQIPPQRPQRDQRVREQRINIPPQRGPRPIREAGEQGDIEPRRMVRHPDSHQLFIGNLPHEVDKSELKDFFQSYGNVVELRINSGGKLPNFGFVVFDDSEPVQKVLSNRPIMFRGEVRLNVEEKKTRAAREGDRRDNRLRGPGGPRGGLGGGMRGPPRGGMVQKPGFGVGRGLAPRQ
Technique: RNA Bind-n-Seq
Molecule type: RNA
Matrix: in vitro
Tested at: 200 nM
Notes: whole 134-nt RNA, ends assumed
Added: 150 mM KCl
Baseline: input library
Direction: higher = stronger binding
Constant ends, left off below: GGGAGUUCUACAGUCCGACGAUC … UGGAAUUCUCGGGUGUCAAGG
Strand | log2 enrichment
AGUCCUGUGCUACACAUCGUAUGUACCGAAUCGGGGUGGGGUUUUUGGGGUUUGGGGAAAGUAUUAUGUUACGCCGUUCGGAUCUGCACU | 0.109
UAACUUUAGAGGAGGAUCUGAUGGAUAUGGCAGUGCACGUGGAUUUGGGGAUGGCUAUAAUGGGUAUGGAGGAGGACCUGGAGGUGGCAA | 0.297
CUGUGCUACACAUCGUAUGUACCGAAUCGGGGUUUUUUUGGGUUUUUUUGGUUUUUUUGGGGAAAGUAUUAUGUUACGCCGUUCGGAUCU | -0.946
ACCAUGCAGGUGGGCAUCUUUGGGAAGUGGGGCAAGGGGGGGAUAGGGAGGGGGGUAACACUUUGGGAACAGGUGGUUCCAGGUCGUUUC | 0.92
CACAGACAACACGCACCCACACAGACACAGAGGGAAGGGGUUGGGAUGGGGACAGGGUGCACAGCAGGGCGGGGAAGGACCCCAGCCCCU | 1.88
UUUCAGGGCGCCCUGCGUCCGGCAGAGGAGGCGAGCAUCCCGCUCAGGUGAUGAGGAACCCCUCGCGCACCCAGCGCAGAAGGCUGCUGC | -1.23
AAGUCCUGUGCUACACAUCGUAUGUACCGAAUCGGGUUUUUGGGUUUUUGGGAGGGAAAGUAUUAUGUUACGCCGUUCGGAUCUGCACUU | -0.0552
GUCCUGUGCUACACAUCGUAUGUACCGAAUCGGGAAAAAGGGUUUUUUUGGGUUUGGGAAAGUAUUAUGUUACGCCGUUCGGAUCUGCAC | -0.672
AGUCCUGUGCUACACAUCGUAUGUACCGAAUCGGGAAAAGGGGAAAAGGAAAAGGGGAAAGUAUUAUGUUACGCCGUUCGGAUCUGCACU | -0.226

Other studies, line by line
Substance | target | assay | system | setting | scale | endpoint | result
PhoQ, residues 284 288 289 292 302 303 SLANIV | PhoP, residues 12 14 15 18 19 AQCLL (Escherichia coli, UniProt P23836) | Sort-seq, measured: YFP reporter | E. coli | PhoQ-PhoP variant library, added: 10 µM Mg2+ | baseline: high Mg2+ state, higher = stronger signaling | fold induction | 4.15

For quick reference, copied from above (series 2):
Strand | 6-mer enrichment (R)
GUGCAA | 0.938
AGGGCU | 1.93
GAGGUA | 1.49
